Literature values that unrelated publications cite.
Compare with care: the assays were run in different laboratories.
Organism: Plasmodium falciparum

`c1ccc(CCNc2ncnc3c2[nH]c2ccccc23)cc1` gave an IC50 of 600 nM (3D7; 72 h, whole cell).
`S=C(NCCCNCCCCCCNCCCNC(=S)NC(c1ccccc1)c1ccccc1)NC(c1ccccc1)c1ccccc1` has an IC50 of 211 nM (parasite growth; 3D7; intraerythrocytic stage).
`CC1=C2Cc3cc(ccc3O)C(=O)O[C@H](C(C)(C)Br)CC[C@](C)(O)[C@H](Br)CC[C@]2(C)[C@@H](Br)CC1` has an IC50 of under 1000 nM (chloroquine-resistant).
`C[C@H]1CCC[C@H](C[C@H]2Cc3cc(O)cc(O)c3C(=O)O2)O1` has an IC50 of 40 to 90 nM (parasite growth; blood and liver stages).
For `C/C=C1\NC(=O)[C@H]2CSSCC/C=C/[C@H](CC(=O)N[C@H](C(C)C)C(=O)N2)OC(=O)[C@H](C(C)C)NC1=O`, the IC50 was 100 nM (growth; asexual stage).
For `O=P(O)(O)C(O)(Cn1ccnc1)P(=O)(O)O`, the IC50 was over 70000 nM (parasite growth).
The IC50 of `O=CN(O)CCCP(=O)(O)O` is reported as 181 nM (parasite growth; blood stage).
With `O=C1C(O)=C([C@H]2CC[C@H](c3ccc(Cl)cc3)CC2)C(=O)c2ccccc21` the IC50 was 1 nM (parasite growth; 3D7).
`CCCCCCCCCCCCCCCC[N+](C)(C)C` has an IC50 of 10000 nM (growth).
With `O=CN(O)CCCP(=O)(O)O` the IC50 was 90 to 350 nM (parasite growth; 3D7; range reported).
With `COc1ccc(NS(=O)(=O)c2cc(NC(=O)Cn3ccccc3=O)ccc2N2CCCCC2)cc1` the IC50 was 695 nM (3D7; 72 h, whole cell).
The IC50 of `C[N+](C)(C)CCCCCCCCCC[N+](C)(C)C` is reported as 1000 nM (growth).

Excerpt of the above:
`c1ccc(CCNc2ncnc3c2[nH]c2ccccc23)cc1` gave an IC50 of 600 nM (3D7; 72 h, whole cell).
